Experimental data pooled from the literature.
A part holds a random share of what one study measured.
UniProt P29317, sequence (whole entry, looked up): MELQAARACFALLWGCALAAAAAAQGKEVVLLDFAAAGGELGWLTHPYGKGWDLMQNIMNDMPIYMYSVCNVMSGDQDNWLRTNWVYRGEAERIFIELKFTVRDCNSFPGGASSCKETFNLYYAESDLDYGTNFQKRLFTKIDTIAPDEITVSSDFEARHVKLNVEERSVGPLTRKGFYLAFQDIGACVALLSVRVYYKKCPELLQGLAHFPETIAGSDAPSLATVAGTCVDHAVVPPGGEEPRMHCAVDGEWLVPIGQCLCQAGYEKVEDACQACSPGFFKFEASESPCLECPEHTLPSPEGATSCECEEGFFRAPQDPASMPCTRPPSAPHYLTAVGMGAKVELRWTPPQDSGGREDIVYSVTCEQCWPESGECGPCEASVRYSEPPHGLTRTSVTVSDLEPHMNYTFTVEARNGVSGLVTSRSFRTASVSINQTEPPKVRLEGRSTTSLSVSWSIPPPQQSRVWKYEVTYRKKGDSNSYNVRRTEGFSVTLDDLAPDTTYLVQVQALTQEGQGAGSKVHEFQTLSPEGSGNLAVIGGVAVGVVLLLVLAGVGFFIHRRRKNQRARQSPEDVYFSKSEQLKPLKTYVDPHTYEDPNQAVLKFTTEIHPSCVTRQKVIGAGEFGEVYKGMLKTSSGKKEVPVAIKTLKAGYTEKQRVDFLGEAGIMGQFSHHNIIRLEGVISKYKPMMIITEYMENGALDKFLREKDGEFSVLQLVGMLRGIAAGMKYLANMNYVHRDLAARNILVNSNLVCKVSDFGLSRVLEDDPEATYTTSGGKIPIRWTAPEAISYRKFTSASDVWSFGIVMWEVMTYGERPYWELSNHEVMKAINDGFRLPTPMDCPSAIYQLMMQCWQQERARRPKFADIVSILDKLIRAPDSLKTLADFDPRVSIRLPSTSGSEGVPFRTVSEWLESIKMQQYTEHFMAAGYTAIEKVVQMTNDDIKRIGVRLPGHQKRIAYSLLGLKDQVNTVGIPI
UniProt Q13153, sequence (whole entry, looked up): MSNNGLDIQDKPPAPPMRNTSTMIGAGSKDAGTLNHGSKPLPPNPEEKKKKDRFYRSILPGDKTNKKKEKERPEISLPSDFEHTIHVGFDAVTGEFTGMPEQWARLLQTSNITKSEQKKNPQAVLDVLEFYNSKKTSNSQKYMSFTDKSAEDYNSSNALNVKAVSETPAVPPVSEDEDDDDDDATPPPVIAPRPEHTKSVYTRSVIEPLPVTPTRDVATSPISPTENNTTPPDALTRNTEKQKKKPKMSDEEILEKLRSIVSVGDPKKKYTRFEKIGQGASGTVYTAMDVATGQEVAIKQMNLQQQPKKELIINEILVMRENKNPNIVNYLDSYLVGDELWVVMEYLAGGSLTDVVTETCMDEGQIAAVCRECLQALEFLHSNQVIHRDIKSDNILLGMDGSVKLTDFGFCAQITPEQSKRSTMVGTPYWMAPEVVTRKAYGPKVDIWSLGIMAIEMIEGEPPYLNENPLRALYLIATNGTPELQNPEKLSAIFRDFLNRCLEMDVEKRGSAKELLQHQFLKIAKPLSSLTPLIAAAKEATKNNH
UniProt P49840, sequence (whole entry, looked up): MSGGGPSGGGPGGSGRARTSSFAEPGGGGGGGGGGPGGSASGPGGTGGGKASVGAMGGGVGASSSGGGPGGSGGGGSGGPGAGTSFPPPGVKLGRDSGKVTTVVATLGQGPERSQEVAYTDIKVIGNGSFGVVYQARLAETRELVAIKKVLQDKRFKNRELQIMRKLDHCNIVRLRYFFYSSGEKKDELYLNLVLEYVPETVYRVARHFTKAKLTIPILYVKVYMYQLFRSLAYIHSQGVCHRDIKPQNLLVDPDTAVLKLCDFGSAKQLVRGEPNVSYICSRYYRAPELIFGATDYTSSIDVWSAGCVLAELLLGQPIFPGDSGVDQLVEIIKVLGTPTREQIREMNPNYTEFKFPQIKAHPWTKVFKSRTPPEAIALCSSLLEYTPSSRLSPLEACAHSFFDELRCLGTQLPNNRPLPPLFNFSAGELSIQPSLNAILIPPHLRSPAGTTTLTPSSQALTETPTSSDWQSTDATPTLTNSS
UniProt P50750, sequence (whole entry, looked up): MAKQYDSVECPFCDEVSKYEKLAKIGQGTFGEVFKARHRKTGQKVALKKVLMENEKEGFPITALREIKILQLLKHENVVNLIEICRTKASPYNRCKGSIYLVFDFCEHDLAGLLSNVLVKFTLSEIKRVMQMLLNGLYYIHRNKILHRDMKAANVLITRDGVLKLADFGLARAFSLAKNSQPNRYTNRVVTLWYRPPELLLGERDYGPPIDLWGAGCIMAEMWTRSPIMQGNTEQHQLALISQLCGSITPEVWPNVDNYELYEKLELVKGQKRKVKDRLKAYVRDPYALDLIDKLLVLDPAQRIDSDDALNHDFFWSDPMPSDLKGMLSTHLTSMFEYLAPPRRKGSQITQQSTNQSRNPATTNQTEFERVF
UniProt P42336, sequence (whole entry, unmodified, looked up): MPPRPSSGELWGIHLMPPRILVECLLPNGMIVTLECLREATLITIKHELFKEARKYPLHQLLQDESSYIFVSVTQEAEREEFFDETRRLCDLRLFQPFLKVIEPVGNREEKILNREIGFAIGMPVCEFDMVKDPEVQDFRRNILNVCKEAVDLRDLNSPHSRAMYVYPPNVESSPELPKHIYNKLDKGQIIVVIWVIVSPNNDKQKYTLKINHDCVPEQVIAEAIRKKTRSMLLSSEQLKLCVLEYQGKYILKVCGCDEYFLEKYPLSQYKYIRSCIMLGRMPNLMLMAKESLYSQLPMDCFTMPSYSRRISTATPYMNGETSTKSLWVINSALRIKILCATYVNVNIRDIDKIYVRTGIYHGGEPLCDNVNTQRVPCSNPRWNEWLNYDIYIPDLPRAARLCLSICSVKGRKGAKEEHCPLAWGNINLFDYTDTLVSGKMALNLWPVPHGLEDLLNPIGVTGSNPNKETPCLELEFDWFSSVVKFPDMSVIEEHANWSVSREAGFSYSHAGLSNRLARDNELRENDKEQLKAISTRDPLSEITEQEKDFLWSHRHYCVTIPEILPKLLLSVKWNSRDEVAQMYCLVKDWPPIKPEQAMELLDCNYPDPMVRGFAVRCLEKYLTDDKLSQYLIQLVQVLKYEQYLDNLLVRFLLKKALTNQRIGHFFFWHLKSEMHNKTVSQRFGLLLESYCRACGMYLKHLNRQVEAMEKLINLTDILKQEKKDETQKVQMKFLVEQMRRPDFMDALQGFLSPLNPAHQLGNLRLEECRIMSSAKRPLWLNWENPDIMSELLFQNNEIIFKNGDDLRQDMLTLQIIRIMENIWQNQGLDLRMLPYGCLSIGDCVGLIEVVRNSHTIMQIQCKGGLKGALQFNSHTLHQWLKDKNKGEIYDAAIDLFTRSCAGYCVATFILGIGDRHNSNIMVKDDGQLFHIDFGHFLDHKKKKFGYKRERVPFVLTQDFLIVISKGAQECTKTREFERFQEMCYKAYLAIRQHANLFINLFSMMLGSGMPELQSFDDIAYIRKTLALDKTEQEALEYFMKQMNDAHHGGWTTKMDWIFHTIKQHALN
UniProt Q9NYL2, sequence (whole entry, looked up): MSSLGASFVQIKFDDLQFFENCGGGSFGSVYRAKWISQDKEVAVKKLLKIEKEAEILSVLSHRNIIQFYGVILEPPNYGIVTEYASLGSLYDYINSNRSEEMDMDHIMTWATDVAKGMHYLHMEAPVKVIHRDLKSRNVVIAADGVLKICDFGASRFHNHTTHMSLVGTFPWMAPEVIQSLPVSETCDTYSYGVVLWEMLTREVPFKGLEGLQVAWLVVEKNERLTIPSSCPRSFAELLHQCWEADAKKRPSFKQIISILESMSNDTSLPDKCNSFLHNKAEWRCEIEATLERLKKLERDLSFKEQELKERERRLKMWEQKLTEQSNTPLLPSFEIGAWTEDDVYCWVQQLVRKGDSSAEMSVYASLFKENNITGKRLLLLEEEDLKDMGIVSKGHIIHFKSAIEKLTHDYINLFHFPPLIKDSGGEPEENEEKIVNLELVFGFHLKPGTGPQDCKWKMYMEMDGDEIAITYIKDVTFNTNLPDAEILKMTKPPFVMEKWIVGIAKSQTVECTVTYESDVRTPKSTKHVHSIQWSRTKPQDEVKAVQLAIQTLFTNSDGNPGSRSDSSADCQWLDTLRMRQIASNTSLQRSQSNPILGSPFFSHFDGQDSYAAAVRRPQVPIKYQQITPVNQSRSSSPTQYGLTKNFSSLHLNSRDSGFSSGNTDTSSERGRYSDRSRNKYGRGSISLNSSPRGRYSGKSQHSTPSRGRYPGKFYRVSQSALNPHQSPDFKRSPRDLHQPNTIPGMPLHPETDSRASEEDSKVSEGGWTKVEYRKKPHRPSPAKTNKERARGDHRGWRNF
UniProt P51812, sequence (whole entry, looked up): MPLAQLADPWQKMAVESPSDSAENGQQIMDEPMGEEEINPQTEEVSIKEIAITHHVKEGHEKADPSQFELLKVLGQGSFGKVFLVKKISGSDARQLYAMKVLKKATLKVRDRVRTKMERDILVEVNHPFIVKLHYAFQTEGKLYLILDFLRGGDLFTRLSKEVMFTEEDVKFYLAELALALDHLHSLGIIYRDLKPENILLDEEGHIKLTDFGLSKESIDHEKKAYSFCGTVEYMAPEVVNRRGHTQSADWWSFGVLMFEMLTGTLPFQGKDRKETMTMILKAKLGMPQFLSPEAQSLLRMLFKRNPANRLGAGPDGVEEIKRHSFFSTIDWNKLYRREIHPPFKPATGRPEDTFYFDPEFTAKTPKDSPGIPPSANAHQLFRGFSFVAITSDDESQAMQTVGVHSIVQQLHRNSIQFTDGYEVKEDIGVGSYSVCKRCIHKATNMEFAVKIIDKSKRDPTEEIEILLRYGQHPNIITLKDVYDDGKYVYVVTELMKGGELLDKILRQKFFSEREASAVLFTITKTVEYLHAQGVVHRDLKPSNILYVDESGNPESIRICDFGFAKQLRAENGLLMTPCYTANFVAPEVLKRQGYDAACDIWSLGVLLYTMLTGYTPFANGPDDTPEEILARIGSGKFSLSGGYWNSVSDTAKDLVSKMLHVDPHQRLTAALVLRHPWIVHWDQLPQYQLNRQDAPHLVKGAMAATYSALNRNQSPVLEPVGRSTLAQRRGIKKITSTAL

Sample 1 — SMILES: CC(C)n1cnc2c(Nc3cccc(Cl)c3)nc(NCCO)nc21; effect on: enzyme activity; mode: inhibitor; tested at: 0.5 µM; reference: control; quantity: remaining activity
FLT1 (Homo sapiens, UniProt P17948): 93.4%
JAK1 (Homo sapiens, UniProt P23458): 103%
MAP3K20 (Homo sapiens, UniProt Q9NYL2): 96.6%
TEC (Homo sapiens, UniProt P42680): 113%
SIK2 (Homo sapiens, UniProt Q9H0K1): 107%
RPS6KA3 (Homo sapiens, UniProt P51812): 60.1%
SGK2 (Homo sapiens, UniProt Q9HBY8): 97.4%
IGF1R (Homo sapiens, UniProt P08069): 90%
CLK2 (Homo sapiens, UniProt P49760): 25%
Cyclin-dependent kinase 2, with cyclin E (CDK2, Homo sapiens, UniProt P24941): 37.1%
CSNK1D (Homo sapiens, UniProt P48730): 48.5%
CLK1 (Homo sapiens, UniProt P49759): 77.9%
CAMK1 (Homo sapiens, UniProt Q14012): 71.2%
TYRO3 (Homo sapiens, UniProt Q06418): 92.7%
CSNK1E (Homo sapiens, UniProt P49674): 65.4%
SRPK1 (Homo sapiens, UniProt Q96SB4): 61.7%
MUSK (Homo sapiens, UniProt O15146): 58.6%
EPHA2 (Homo sapiens, UniProt P29317): 93.3%
PRKCQ (Homo sapiens, UniProt Q04759): 91.4%
PAK1 (Homo sapiens, UniProt Q13153): 97.1%

Sample 2 — organism: Sarcocystis neurona; effect on: parasite growth; tested at: 10 µM; time: 96 h; setting: second screen; reference: untreated; quantity: log2 fold change
Cc1ncc([N+](=O)[O-])n1CCO: 0.24
CCC[C@@H]1C[C@@H](C(=O)N[C@@H]([C@H]2O[C@H](SC)[C@H](O)[C@@H](O)[C@H]2O)[C@@H](C)O)N(C)C1: -0.08
O=C1CC[C@@H](C(=O)N2CSC[C@H]2C(=O)O)N1: 0.41
CC(=O)N1CCN(c2ccc(OCC3COC(Cn4ccnc4)(c4ccc(Cl)cc4Cl)O3)cc2)CC1 (stereo not drawn): 0.0634
CC1(C)O[C@@H]2C[C@H]3[C@@H]4C[C@H](F)C5=CC(=O)C=C[C@]5(C)[C@@]4(F)[C@@H](O)C[C@]3(C)[C@]2(C(=O)CO)O1: 0.36
CC(COc1ccccc1)NC(C)C(O)c1ccc(O)cc1 (stereo not drawn): 0.28
CC1(C)O[C@@H]2C[C@H]3[C@@H]4CCC5=CC(=O)C=C[C@]5(C)[C@@]4(F)[C@@H](O)C[C@]3(C)[C@]2(C(=O)CO)O1: 0.65
CC[C@@]1(O)C(=O)OCc2c1cc1n(c2=O)Cc2cc3c(CN(C)C)c(O)ccc3nc2-1: 0.47
CCCOc1ccc(C(=O)OCCN(CC)CC)cc1N: 0.36
Cc1nccn1CC1CCc2c(c3ccccc3n2C)C1=O (stereo not drawn): 0.44
O=[N+]([O-])c1cccc2cn[nH]c12: 0.16
Clc1ccc(COC(Cn2ccnc2)c2ccc(Cl)cc2Cl)cc1 (stereo not drawn): -0.1

Sample 3 — effect on: cell-free assay; technique: competition with immobilised ligand; tested at: 1 µM; quantity: remaining binding
SMILES: CN(C)c1ncnc(-c2ccc3nc(Nc4cc(CN5CCN(C(=O)CC(F)(F)F)CC5)ccn4)[nH]c3c2)c1Cl
PRKACB (Homo sapiens, UniProt P22694): 76%
PTK2B (Homo sapiens, UniProt Q14289): 85%
PNCK (Homo sapiens, UniProt Q6P2M8): 72%
CDK9 (Homo sapiens, UniProt P50750): 100%
EGFR (Homo sapiens, UniProt P00533, G719C): 88%
GSK3A (Homo sapiens, UniProt P49840): 75%
CSNK2A1 (Homo sapiens, UniProt P68400): 80%
PKMYT1 (Homo sapiens, UniProt Q99640): 75%
EPHA2 (Homo sapiens, UniProt P29317): 100%
PIK3CB (Homo sapiens, UniProt P42338): 82%
FLT4 (Homo sapiens, UniProt P35916): 63%
MATK (Homo sapiens, UniProt P42679): 69%
MAP4K1 (Homo sapiens, UniProt Q92918): 91%
MAP3K7 (Homo sapiens, UniProt O43318): 74%
PIK3CA (Homo sapiens, UniProt P42336, E545A): 100%

Sample 4 — cell line: A-375; tested at: 100 µM; time: 36 h; quantity: viability
C/C=C/c1ccc(OC)cc1: 102%
Cc1cc(Nc2ncc(Cl)c(Nc3ccccc3S(=O)(=O)C(C)C)n2)c(OC(C)C)cc1C1CCNCC1: 1.11%
COC(=O)C1=C(C)NC(C)=C(C(=O)OC(C)(C)CN(C)CCC(c2ccccc2)c2ccccc2)C1c1cccc([N+](=O)[O-])c1 (stereo not drawn): 53.5%
COc1cc([C@H]2Oc3cc([C@H]4Oc5cc(O)cc(O)c5C(=O)[C@@H]4O)ccc3O[C@@H]2CO)ccc1O: 82.8%
O=C(O[C@H]1CN2CCC1CC2)N1CCc2ccccc2[C@@H]1c1ccccc1: 0.0413%
N[C@H]1CONC1=O: 118%
N[C@@H](CCC(=O)N[C@@H](CS)C(=O)NCC(=O)O)C(=O)O: 83.1%
CC(=O)Nc1ccc(OC(=O)c2ccccc2OC(C)=O)cc1: 88.5%
CC(=O)O[C@]1(C(C)=O)CC[C@H]2[C@@H]3CCC4=CC(=O)CCC4=C3[C@@H](c3ccc(N(C)C)cc3)C[C@@]21C: 80.4%
CC(=O)N[C@@H](CS)C(=O)O: 106%
CC(=O)O[C@H]1Cc2ccccc2N(C(N)=O)c2ccccc21: 111%
Cc1[nH]cnc1CN1CCc2c(c3ccccc3n2C)C1=O: 82.8%
CO/N=C(\C(=O)N[C@@H]1C(=O)N2C(C(=O)O)=C(COC(C)=O)CS[C@H]12)c1csc(N)n1: 112%

A few entries again (sample 4):
CC(=O)N[C@@H](CS)C(=O)O: 106%
CC(=O)O[C@]1(C(C)=O)CC[C@H]2[C@@H]3CCC4=CC(=O)CCC4=C3[C@@H](c3ccc(N(C)C)cc3)C[C@@]21C: 80.4%
Cc1cc(Nc2ncc(Cl)c(Nc3ccccc3S(=O)(=O)C(C)C)n2)c(OC(C)C)cc1C1CCNCC1: 1.11%
CC(=O)Nc1ccc(OC(=O)c2ccccc2OC(C)=O)cc1: 88.5%
